Published values of several laboratories.
Several values in a cell are separate wells, animals, samples, runs or records. ± gives the spread as reported.
Spike glycoprotein: Spike glycoprotein (Severe acute respiratory syndrome coronavirus 2, UniProt P0DTC2)
rep main protease: Replicase polyprotein 1ab, main protease (rep, Severe acute respiratory syndrome coronavirus 2, UniProt P0DTD1)

`N#CC(C#N)=NNc1cccc(Cl)c1` gave an FIC index of 0.75 (Escherichia coli; checkerboard; tetracycline-resistant; 21 µM, together with: tetracycline).
`KKRWQLALSKGVHFV` gave a responding donors of 18% (human CD4 T cells; AIM; peptide).
`CC1(C)[C@@H](O)CC[C@]2(C)[C@H]3C(=O)C=C4[C@@H]5C[C@@](C)(C(=O)O)CC[C@]5(C)CC[C@@]4(C)[C@]3(C)CC[C@@H]12` gave a Kd of 38.7 µM (Spike glycoprotein; binding, biolayer interferometry).
The remaining activity of `CCOCCC(=O)N1CC(=O)N[C@@H](CC(C)C)c2nc(cs2)C(=O)N[C@@H](Cc2ccccc2)c2nc(C)nn2CC(=O)N[C@@H](C(C)C)C1` is reported as 105% (Lassa mammarenavirus; viral replication; Huh-7; 10 µM, 72 h).
`ω-agatoxin IVA`: “PKA-RII phosphorylation inhibition” 1.05 and 0.773 and 0.987 (cAMP signalling, high-content microscopy; DRG neurons, rat, spinal cord injury; dose not given, normalised 0 to 1, unit not given, together with: forskolin, DAMGO 0.03; reference: DAMGO maximum, higher = stronger inhibition).
`Cc1cc(/C=C/C#N)cc(C)c1Nc1ccnc(Nc2ccc(C#N)cc2)n1` has an EC50 of 1.1 ± 0.1 nM (HIV-1; viral replication, single-round infection; RT mutant E138K/M184I).
With `Nc1ncnc2c([C@@H]3N[C@H](CO)[C@@H](O)[C@H]3O)c[nH]c12` the inhibition was 99.9% (Zaire ebolavirus; viral replication; HeLa, Kikwit; 100 µM).
For `O=C(Nc1cccc(-c2cc3ccccc3[nH]2)c1)C1CCN(C(=O)C2CC=CCC2)CC1` (stereo not shown), the remaining activity was 55% (Lassa mammarenavirus; viral replication; Huh-7; 10 µM, 72 h).
`Cn1cnc(Cn2c(=O)[nH]/c(=N\c3cc4cn(C)nc4cc3Cl)n(Cc3cc(F)c(F)cc3F)c2=O)n1` — result for “patients with adverse event”: 0% (human, mild renal impairment; oral, 375 mg, treatment-related decreased GFR, Severe severity).
With `CC(Nc1nc(N2CCN(C)CC2)nc2ccccc12)c1ccccc1` (stereo not shown) the efficacy was 120% (SARS-CoV-2; cytopathic effect, cell-based CPE; USA_WA1/2020; round 2, 5-point dilution).
`Cn1c(Cn2ccc(C(F)(F)F)c(Oc3cc(Cl)cc(C#N)c3)c2=O)n[nH]c1=O` has an EC50 of 1.5 ± 0.4 nM (HIV-1; viral replication, single-round infection; RT mutant K101P/V179I).
For `CCN(CC)Cc1cc(Nc2ccnc3cc(Cl)ccc23)ccc1O`, the maximal response was 89% (SARS-CoV-2; cytopathic effect, cell-based CPE; USA_WA1/2020; round 2, 5-point dilution).
`CNC(=O)[C@@H](NC(=O)[C@H](CC(C)C)[C@H](O)C(=O)NO)C(C)(C)C` — result for “remaining fibrinogen Aα chain”: 0.719 (human fibrinogen; SDS-PAGE; Daboia russelii; concentration not given, unit not given, together with: GA venom; reference: untreated fibrinogen).
With `Cc1nc2n(n1)CC(=O)N[C@@H](C(C)C)CN(C(=O)c1ccc(F)cc1)CC(=O)N[C@@H](CC(C)C)c1nc(cs1)C(=O)N[C@H]2Cc1ccccc1` the remaining activity was 68% (Lassa mammarenavirus; viral replication; Huh-7; 10 µM, 72 h).
`NC(=O)CCNC(=O)c1ccccc1S` has an EC50 of 4630 ± 600 nM (HIV-1; viral replication; human PBMC, subtype G JV1083, CCR5-tropic clinical isolate).
The Vmax of `CCOP(=S)(OCC)Oc1nc(Cl)c(Cl)cc1Cl` is reported as 1.68 ± 0.31 nmol/min/mg protein (rat CYP2C; tolbutamide hydroxylation; liver microsomes; concentration not given).
`CC(=O)Nc1ccc2nc(-c3[nH]cnc3-c3ccccc3)ccc2c1` has a remaining activity of 47% (Lassa mammarenavirus; viral replication; Huh-7; 10 µM, 72 h).
The EC50 of `Cc1cn([C@H]2C[C@H](N=[N+]=[N-])[C@@H](CO)O2)c(=O)[nH]c1=O` is reported as 6.59 ± 1.26 nM (HIV-1; viral replication; human PBMC, group O BCF02, CCR5-tropic clinical isolate).
`STECSNLLLQYGSFC` gave a responding donors of 8% (human CD4 T cells; AIM; peptide).
`O=C1CCC(N2C(=O)c3cccc4c(Cc5cnn(C6CCN(C(=O)C7(O)CCC7)CC6)c5)ccc2c34)C(=O)N1` (stereo not shown) gave an IC50 of > 10 µM (human PBMC; cytotoxicity).
With `Cc1nc2n(n1)CC(=O)N[C@@H](C(C)C)CN(C(=O)CCC(C)C)CC(=O)N[C@@H](CC(C)C)c1nc(cs1)C(=O)N[C@H]2Cc1ccccc1` the remaining activity was 68% (Lassa mammarenavirus; viral replication; Huh-7; 10 µM, 72 h).
For `COc1cc(O)ccc1/C=C/C(=O)c1ccc(O)cc1`, the inhibition was > 90% (viral replication; SARS-CoV-2 trVLP system; 100 µM).
For `CC(C)(F)C[C@H](N[C@@H](c1ccc(-c2ccc(S(C)(=O)=O)cc2)cc1)C(F)(F)F)C(=O)NC1(C#N)CC1`, the inhibition was -0.81% (rep main protease; reporter gene (mKate2), inhibitor; 20 µM).
`CC1CCN(CCCNC(=O)c2cc(Sc3ccc(F)cc3)nc3ccccc23)CC1` has a maximum response of 84.4% (SARS-CoV-2; cytopathic effect; USA_WA1/2020; retest 8-point).
With `CCCC(=O)OCSc1ccccc1C(=O)NCCC(N)=O` the EC50 was 3450 ± 1900 nM (HIV-1; viral replication; human PBMC, subtype F 93BR029, CCR5-tropic clinical isolate).
`O=C(c1ccc2[nH]ccc2c1)N1CCC2(CCCN(CCc3ccccc3)C2)C1` (stereo not shown) gave a remaining activity of 2% (Lassa mammarenavirus; viral replication; Huh-7; 10 µM, 72 h).
The IC50 of `Fc1ccc(C(OCCN2CCN(CCCc3ccccc3)CC2)c2ccc(F)cc2)cc1` is reported as 7.69 µM (HeLa; Ebola VLP entry).
For `Cc1cnccc1N1CCCN(c2nc(N(C)C)nc3c2CCNC3)CC1`, the remaining activity was 42% (Lassa mammarenavirus; viral replication; Huh-7; 10 µM, 72 h).
With `CCOc1ccc(NC(=O)c2cnn(-c3ccc(C)c(Cl)c3)c2C2CCNCC2)cc1` the efficacy was 99.7% (SARS-CoV-2; cytopathic effect; USA_WA1/2020; round 1, 5-point).
For `FPQSAPHGV`, “frequency of responding donors” read 100% (AIM; peptide, CD8+ T cells from PBMC, human donors; reference: positive over tested donors).
For `COc1cc(/C=C2\CCCN([C@@H](C)c3ccc(F)cc3)C2=O)ccc1-n1cnc(C)c1`, the inhibition was -0.0348% (rep main protease; viral replication, mKate2 reporter; SARS-CoV-2; 20 µM).
The efficacy of `COc1ccc(Cl)cc1NC(=O)CSc1nc2ccccc2nc1N1CCCCC1` is reported as 101% (SARS-CoV-2; cytopathic effect; USA_WA1/2020; round 1, 5-point).
`EVTPSGTWLTY` — result for “frequency of responding donors”: 33% (AIM; peptide, CD8+ T cells from PBMC, human donors; reference: positive over tested donors).
`CCCN(CCC)CCNC(=O)c1cc(Sc2ccc(Cl)cc2)nc2ccccc12` gave a maximum response of 86.9% (SARS-CoV-2; cytopathic effect; USA_WA1/2020; first round 5-point).
`Cc1cc(/C=C/C#N)cc(C)c1Nc1nc(Nc2ccc3cc(C#N)ccc3c2)ncc1N` gave an EC50 of 13.7 ± 3.4 nM (HIV-1; viral replication, single-round infection; RT mutant V106A).
Under “response magnitude per positive donor”, `KVAGFAKFL` is recorded as 113 (AIM; peptide, CD8+ T cells from PBMC, human donors; dose not given).
`O=C(O[C@@H]1Cc2c(O)cc(O)cc2O[C@@H]1c1cc(O)c(O)c(O)c1)c1cc(O)c(O)c(O)c1` gave a Kd of 11.5 µM (Spike glycoprotein; binding, biolayer interferometry).
With `Cc1cc(/C=C/C#N)cc(C)c1Nc1nc(Nc2ccc(/C=C/C#N)cc2)ncc1N` the EC50 was 0.7 ± 0.1 nM (HIV-1; viral replication, single-round infection; RT mutant G190A).
`KVTFFPDLNGDVVAI` gave a responding donors of 15% (human CD4 T cells; AIM; peptide).
`Cc1nc2n(n1)CC(=O)N[C@@H](C(C)C)CN(C(=O)c1cccnc1)CC(=O)N[C@@H](CC(C)C)c1nc(cs1)C(=O)N[C@H]2Cc1ccccc1` gave a remaining activity of 90% (Lassa mammarenavirus; viral replication; Huh-7; 10 µM, 72 h).
`DSKTQSLLIVNNATN` gave a responding donors of 9% (human CD4 T cells; AIM; peptide).
`CCc1c(C(=O)C(N)=O)c2c(OCC(=O)O)cccc2n1Cc1ccccc1` has a survival of 100% (TN population, mouse; intravenous, 90 µg/mouse, 24 h, preincubated with venom, together with: Daboia russelii venom 2.5 x LD50).
`O=C1Nc2ccc(Cl)cc2[C@@](C#CC2CC2)(C(F)(F)F)O1` has an EC50 of 0.2 ± 0.04 nM (HIV-1; viral replication, single-round infection; RT mutant P236L).
`CC[C@H](C)[C@H](NC(=O)[C@H](CC(C)C)NC(=O)[C@H](Cc1c[nH]c2ccccc12)NC(=O)[C@H](CCC(N)=O)NC(=O)[C@@H](NC(=O)[C@H](Cc1ccccc1)NC(=O)[C@H](C)NC(=O)[C@H](CCCCNC(=O)COCCOCCNC(=O)COCCOCCNC(=O)CC[C@H](NC(=O)CCCCCCCCCCCCCCCCCCC(=O)O)C(=O)O)NC(=O)[C@H](CCC(N)=O)NC(=O)[C@H](C)NC(=O)[C@@H](NC(=O)[C@H](CCCCN)NC(=O)[C@H](CC(=O)O)NC(=O)[C@H](CC(C)C)NC(=O)C(C)(C)NC(=O)[C@@H](NC(=O)[C@H](CO)NC(=O)[C@H](Cc1ccc(O)cc1)NC(=O)[C@H](CC(=O)O)NC(=O)[C@H](CO)NC(=O)[C@@H](NC(=O)[C@H](Cc1ccccc1)NC(=O)[C@@H](NC(=O)CNC(=O)[C@H](CCC(=O)O)NC(=O)C(C)(C)NC(=O)[C@@H](N)Cc1ccc(O)cc1)[C@@H](C)O)[C@@H](C)O)[C@@H](C)CC)[C@@H](C)CC)C(C)C)C(=O)N[C@@H](C)C(=O)NCC(=O)NCC(=O)N1CCC[C@H]1C(=O)N[C@@H](CO)C(=O)N[C@@H](CO)C(=O)NCC(=O)N[C@@H](C)C(=O)N1CCC[C@H]1C(=O)N1CCC[C@H]1C(=O)N1CCC[C@H]1C(=O)N[C@@H](CO)C(N)=O` — result for “subjects with treatment-induced ADA”: 0% (measured: anti-drug antibodies; healthy subjects; 4.5 mg, postbaseline, multiple ascending dose, titre ≥1:20).
For `Cc1cc(/C=C/C#N)cc(C)c1-n1cnc2cnc(Nc3ccc4cc(C#N)ccc4c3)nc21`, the EC50 was < 5 nM (HIV-1; viral replication, single-round infection; RT mutant E40K).
`COc1cccc(-c2ccccc2NC(=O)C2CCN(Cc3ccccc3F)CC2)c1` gave an AC50 of 14.1 µM (SARS-CoV-2; cytopathic effect, cell-based CPE; USA_WA1/2020).
`COP(=O)(OC)OC=C(Cl)Cl` gave a Vmax of 0.93 ± 0.3 nmol/min/mg protein (rat CYP2C; tolbutamide hydroxylation; liver microsomes; concentration not given).
With `Cc1cccc(N2CCN(C(=O)C3CCN(Cc4nc(-c5ccc(Cl)cc5)oc4C)CC3)CC2)c1C` the maximum response was 108% (SARS-CoV-2; cytopathic effect; USA_WA1/2020; round 1, 5-point).
`SIIAYTMSL` — result for “frequency of responding donors”: 20 (AIM; peptide, CD8+ T cells from PBMC, human donors; HLA-B*08:01 restricted, unit not given; reference: positive over tested donors).

Excerpt of the above:
With `Nc1ncnc2c([C@@H]3N[C@H](CO)[C@@H](O)[C@H]3O)c[nH]c12` the inhibition was 99.9% (Zaire ebolavirus; viral replication; HeLa, Kikwit; 100 µM).
For `O=C(Nc1cccc(-c2cc3ccccc3[nH]2)c1)C1CCN(C(=O)C2CC=CCC2)CC1` (stereo not shown), the remaining activity was 55% (Lassa mammarenavirus; viral replication; Huh-7; 10 µM, 72 h).
`Cn1cnc(Cn2c(=O)[nH]/c(=N\c3cc4cn(C)nc4cc3Cl)n(Cc3cc(F)c(F)cc3F)c2=O)n1` — result for “patients with adverse event”: 0% (human, mild renal impairment; oral, 375 mg, treatment-related decreased GFR, Severe severity).
With `CC(Nc1nc(N2CCN(C)CC2)nc2ccccc12)c1ccccc1` (stereo not shown) the efficacy was 120% (SARS-CoV-2; cytopathic effect, cell-based CPE; USA_WA1/2020; round 2, 5-point dilution).
`Cn1c(Cn2ccc(C(F)(F)F)c(Oc3cc(Cl)cc(C#N)c3)c2=O)n[nH]c1=O` has an EC50 of 1.5 ± 0.4 nM (HIV-1; viral replication, single-round infection; RT mutant K101P/V179I).
For `CCN(CC)Cc1cc(Nc2ccnc3cc(Cl)ccc23)ccc1O`, the maximal response was 89% (SARS-CoV-2; cytopathic effect, cell-based CPE; USA_WA1/2020; round 2, 5-point dilution).
`CNC(=O)[C@@H](NC(=O)[C@H](CC(C)C)[C@H](O)C(=O)NO)C(C)(C)C` — result for “remaining fibrinogen Aα chain”: 0.719 (human fibrinogen; SDS-PAGE; Daboia russelii; concentration not given, unit not given, together with: GA venom; reference: untreated fibrinogen).
With `Cc1nc2n(n1)CC(=O)N[C@@H](C(C)C)CN(C(=O)c1ccc(F)cc1)CC(=O)N[C@@H](CC(C)C)c1nc(cs1)C(=O)N[C@H]2Cc1ccccc1` the remaining activity was 68% (Lassa mammarenavirus; viral replication; Huh-7; 10 µM, 72 h).
